{"data": "Published values from different studies", "note": "Protocols differ between the studies behind these lines. Several values in a cell are separate wells, animals, samples, runs or records. ± marks the error that the study gave.", "chain of UniProt Q91WC9 (whole entry, looked up)": "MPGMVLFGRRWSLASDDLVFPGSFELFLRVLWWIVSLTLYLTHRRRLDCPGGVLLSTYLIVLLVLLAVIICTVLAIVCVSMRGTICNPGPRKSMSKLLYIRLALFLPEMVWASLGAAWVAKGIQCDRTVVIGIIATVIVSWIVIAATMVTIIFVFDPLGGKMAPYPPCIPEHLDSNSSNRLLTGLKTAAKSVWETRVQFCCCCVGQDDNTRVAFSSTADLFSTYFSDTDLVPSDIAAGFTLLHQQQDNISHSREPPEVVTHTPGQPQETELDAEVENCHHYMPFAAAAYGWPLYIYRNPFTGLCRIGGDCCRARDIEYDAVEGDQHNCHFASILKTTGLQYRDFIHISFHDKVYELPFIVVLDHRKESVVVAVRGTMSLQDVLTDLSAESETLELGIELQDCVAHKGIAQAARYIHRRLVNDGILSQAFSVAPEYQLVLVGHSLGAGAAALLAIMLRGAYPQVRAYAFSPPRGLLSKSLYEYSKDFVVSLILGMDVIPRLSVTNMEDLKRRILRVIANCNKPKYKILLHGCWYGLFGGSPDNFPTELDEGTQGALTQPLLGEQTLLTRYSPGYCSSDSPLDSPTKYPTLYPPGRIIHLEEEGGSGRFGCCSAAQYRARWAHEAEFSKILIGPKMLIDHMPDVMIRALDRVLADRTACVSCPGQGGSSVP", "chain of UniProt Q9UM07 (whole entry, looked up)": "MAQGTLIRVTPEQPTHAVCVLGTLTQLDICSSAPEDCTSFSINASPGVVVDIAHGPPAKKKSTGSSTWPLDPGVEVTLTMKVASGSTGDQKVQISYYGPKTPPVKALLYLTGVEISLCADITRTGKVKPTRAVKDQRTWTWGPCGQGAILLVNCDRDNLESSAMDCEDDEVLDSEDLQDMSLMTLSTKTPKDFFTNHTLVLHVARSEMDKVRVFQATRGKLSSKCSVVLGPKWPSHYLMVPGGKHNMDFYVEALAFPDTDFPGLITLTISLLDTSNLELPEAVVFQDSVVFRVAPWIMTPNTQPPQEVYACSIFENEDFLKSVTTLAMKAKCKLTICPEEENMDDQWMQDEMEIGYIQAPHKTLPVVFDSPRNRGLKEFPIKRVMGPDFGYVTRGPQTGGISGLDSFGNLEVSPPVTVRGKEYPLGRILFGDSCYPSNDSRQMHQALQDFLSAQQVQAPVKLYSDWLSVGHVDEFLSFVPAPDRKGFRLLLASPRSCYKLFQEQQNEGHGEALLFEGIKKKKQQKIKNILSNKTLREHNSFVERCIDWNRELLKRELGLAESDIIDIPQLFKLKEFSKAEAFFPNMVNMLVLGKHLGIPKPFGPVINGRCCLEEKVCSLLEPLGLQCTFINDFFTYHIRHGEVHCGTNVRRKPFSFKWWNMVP", "chain of UniProt P21554 (whole entry, unmodified, looked up)": "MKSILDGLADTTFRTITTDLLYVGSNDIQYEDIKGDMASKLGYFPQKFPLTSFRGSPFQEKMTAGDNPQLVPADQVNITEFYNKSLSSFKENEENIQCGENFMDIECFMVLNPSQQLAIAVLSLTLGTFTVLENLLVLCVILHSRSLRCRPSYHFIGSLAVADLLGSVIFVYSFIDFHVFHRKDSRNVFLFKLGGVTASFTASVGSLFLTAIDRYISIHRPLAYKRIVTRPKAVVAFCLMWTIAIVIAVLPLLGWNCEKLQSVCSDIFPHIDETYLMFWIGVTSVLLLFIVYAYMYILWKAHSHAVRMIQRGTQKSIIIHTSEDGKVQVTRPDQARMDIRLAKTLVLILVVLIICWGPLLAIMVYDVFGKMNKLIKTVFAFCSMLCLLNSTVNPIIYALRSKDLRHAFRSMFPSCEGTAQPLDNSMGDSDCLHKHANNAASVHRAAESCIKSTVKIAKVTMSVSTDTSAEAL", "chain of UniProt Q00534 (whole entry, looked up)": "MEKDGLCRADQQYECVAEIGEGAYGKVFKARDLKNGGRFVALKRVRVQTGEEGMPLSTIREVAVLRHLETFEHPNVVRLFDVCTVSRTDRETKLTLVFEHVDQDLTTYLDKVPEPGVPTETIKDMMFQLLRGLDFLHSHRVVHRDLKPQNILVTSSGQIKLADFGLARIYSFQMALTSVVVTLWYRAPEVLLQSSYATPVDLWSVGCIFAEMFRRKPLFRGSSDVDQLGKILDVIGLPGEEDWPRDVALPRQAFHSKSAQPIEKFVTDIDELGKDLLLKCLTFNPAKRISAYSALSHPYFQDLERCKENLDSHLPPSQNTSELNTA", "chain of UniProt O60331 (whole entry, looked up)": "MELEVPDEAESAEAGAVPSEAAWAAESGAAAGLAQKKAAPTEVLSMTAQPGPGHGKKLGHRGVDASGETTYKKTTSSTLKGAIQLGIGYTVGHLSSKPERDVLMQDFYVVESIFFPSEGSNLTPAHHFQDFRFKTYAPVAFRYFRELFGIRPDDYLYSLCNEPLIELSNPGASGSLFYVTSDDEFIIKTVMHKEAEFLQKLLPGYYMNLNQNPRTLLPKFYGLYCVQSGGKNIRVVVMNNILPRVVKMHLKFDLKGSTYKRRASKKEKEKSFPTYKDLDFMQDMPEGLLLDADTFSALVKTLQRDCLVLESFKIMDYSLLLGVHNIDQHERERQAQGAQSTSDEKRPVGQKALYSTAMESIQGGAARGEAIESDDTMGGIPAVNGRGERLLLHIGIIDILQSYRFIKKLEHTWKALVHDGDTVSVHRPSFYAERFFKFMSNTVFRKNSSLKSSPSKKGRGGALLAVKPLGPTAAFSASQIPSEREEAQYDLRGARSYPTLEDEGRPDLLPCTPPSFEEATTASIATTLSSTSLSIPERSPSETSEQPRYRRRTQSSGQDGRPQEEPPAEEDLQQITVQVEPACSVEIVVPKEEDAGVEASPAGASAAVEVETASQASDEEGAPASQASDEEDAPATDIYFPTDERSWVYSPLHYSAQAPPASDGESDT", "chain of UniProt P00519 (whole entry, looked up)": "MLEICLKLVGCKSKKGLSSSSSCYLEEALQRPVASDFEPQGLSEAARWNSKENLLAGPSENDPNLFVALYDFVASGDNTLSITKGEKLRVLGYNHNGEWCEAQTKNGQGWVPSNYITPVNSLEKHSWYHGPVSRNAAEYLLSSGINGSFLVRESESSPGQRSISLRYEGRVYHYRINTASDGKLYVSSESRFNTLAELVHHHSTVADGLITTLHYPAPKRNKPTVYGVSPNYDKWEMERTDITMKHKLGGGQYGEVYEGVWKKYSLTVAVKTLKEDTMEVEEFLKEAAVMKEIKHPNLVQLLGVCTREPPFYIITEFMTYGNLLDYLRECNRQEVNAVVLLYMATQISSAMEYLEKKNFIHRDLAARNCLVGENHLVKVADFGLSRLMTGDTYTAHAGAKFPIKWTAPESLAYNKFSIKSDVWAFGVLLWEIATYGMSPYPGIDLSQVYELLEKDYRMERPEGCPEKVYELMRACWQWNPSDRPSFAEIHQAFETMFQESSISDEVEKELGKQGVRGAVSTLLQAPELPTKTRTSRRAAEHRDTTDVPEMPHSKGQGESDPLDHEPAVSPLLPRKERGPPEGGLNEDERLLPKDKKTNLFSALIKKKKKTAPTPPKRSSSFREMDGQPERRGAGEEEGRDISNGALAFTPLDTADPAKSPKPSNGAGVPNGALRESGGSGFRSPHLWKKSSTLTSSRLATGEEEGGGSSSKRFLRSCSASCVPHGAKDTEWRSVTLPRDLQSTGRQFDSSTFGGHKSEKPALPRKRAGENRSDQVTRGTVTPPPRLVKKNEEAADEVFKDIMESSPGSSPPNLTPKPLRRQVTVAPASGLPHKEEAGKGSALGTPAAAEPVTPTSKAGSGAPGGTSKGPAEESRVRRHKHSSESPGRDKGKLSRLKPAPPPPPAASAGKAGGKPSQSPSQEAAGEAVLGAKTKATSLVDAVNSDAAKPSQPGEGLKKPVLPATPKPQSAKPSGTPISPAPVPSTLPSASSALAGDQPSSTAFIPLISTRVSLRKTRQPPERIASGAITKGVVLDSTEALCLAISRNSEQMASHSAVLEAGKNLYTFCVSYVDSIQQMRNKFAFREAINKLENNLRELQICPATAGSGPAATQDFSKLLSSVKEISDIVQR", "chain of UniProt P32245 (whole entry, looked up)": "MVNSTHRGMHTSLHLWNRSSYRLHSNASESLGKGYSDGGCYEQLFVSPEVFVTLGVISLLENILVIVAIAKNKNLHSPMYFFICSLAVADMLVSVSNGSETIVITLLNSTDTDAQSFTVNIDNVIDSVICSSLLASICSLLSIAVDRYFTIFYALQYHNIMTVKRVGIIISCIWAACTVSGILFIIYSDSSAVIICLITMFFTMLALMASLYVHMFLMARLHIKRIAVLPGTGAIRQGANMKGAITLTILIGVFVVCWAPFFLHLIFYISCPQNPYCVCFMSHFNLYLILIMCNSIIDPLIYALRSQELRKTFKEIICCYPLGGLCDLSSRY", "chain of UniProt Q13177 (whole entry, looked up)": "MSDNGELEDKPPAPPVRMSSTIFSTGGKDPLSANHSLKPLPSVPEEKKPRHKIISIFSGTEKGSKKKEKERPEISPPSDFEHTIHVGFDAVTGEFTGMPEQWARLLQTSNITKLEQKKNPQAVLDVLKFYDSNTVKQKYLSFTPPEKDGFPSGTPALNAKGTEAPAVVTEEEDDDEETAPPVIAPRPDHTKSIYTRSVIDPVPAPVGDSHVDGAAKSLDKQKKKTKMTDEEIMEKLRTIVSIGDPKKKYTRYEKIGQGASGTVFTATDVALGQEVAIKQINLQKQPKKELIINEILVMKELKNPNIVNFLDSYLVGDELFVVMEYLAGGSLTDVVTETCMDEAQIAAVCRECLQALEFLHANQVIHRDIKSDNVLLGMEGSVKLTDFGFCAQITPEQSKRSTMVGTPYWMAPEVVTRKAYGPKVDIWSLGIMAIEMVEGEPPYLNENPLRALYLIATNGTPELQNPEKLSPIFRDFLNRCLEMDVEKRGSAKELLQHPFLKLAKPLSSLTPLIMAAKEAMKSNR"}
{"SMILES": "O=C(NC1CCN(c2ncnc3[nH]cnc23)CC1)c1cccc(NS(=O)(=O)c2ccc(C(F)(F)F)cc2)c1", "target or system": "Replicase polyprotein 1ab, nsp14 (rep, Human coronavirus 229E, UniProt P0C6X1)", "assay": "enzyme activity", "setting": "0.01221 µM", "endpoint": "inhibition", "result": "7.54%"}
{"SMILES": "CCCCCn1cc(C(=O)c2cccc3ccccc23)c2ccccc21", "target or system": "CNR1 (Homo sapiens, UniProt P21554, H178A)", "assay": "Gαi1 engagement, agonist, BRET", "how to read": "reference: reference agonist at wild-type CB1", "endpoint": "Emax", "result": "62.6 ± 2.9%"}
{"SMILES": "CS(C)(=O)=Nc1ccc(-c2ccc(-c3nc4cc(O[C@@H]5CO[C@H]6[C@@H]5OC[C@H]6O)[nH]c4cc3F)cc2)cc1", "target or system": "PIP5K1C (Homo sapiens, UniProt O60331)", "assay": "enzyme activity, inhibitor", "setting": "10 µM", "endpoint": "inhibition", "result": "-5%"}
{"SMILES": "CC(C)CC(O)(CC(C)C)c1cn(C(=O)N2CCCC2)nn1", "target or system": "Diacylglycerol lipase-beta (Mus musculus, UniProt Q91WC9)", "assay": "probe labelling, inhibitor, competitive ABPP-SILAC", "system": "mouse T cells", "setting": "concentration not given, 4 h, single peptide", "how to read": "reference: treated over DMSO cells, lower = stronger inhibition", "endpoint": "SILAC activity ratio", "result": "1.04 and 1.25 and 1.39 and 1.12"}
{"SMILES": "C#CCN(Cc1ccc2nc(C)[nH]c(=O)c2c1)c1ccc(C(=O)N[C@H](CCC(=O)OC)C(=O)OC)cc1", "target or system": "Mycobacterium tuberculosis", "assay": "bacterial growth, inhibitor", "system": "H37Rv pptT conditional knockdown", "setting": "PptT depleted, ATc withheld", "endpoint": "MIC90", "result": "> 100 µM"}
{"SMILES": "O=C1NC(=O)c2c1c1cc(F)c[n+]3c1c1c2c2cc(O)ccc2[n]1[Ru-4]312([N]=C=S)[S+]3CC[S+]1CC[S+]2CC3 (stereo not shown)", "target or system": "PAK2 (Homo sapiens, UniProt Q13177)", "assay": "enzyme activity", "setting": "100 nM, human enzyme, added: 10 µM ATP", "how to read": "reference: untreated", "endpoint": "remaining activity", "result": "42%"}
{"SMILES": "CC(C)[C@H]1NC(=O)C[C@H]2/C=C/CCSSC[C@@H](NC1=O)C(=O)N[C@H](Cc1cccc3ccccc13)C(=O)NCC(=O)O2", "target or system": "FGFR3 (Homo sapiens, UniProt P22607)", "assay": "enzyme activity, inhibitor", "setting": "10 µM", "endpoint": "inhibition", "result": "1.8%"}
{"SMILES": "Nc1ccc(/C=C/C(=O)N2CCc3c(oc4c(-c5ccc(F)cc5)cc(-c5ccc(C(=O)N6CCC(F)(F)CC6)cn5)cc34)C2)cn1", "target or system": "Tyrosine-protein kinase ABL1, non-phosphorylated (ABL1, Homo sapiens, UniProt P00519)", "assay": "binding, competition with immobilised ligand", "setting": "1 µM", "endpoint": "remaining binding", "result": "91%"}
{"SMILES": "CN(C)[C@H]1C[C@@]23CC[C@@]4(O2)C(=CC[C@]2(C)[C@@H](c5ccc6ccncc6c5)CC[C@H]24)C=C3[C@@H](O)[C@@H]1O", "target or system": "CDK6 (Homo sapiens, UniProt Q00534)", "assay": "ATP probe labelling, inhibitor, KiNativ profiling", "setting": "1 µM", "endpoint": "inhibition", "result": "-0.6%"}
{"SMILES": "Cc1sc2c(c1C)C(c1ccc(Cl)cc1)=NC(CC(=O)OC(C)(C)C)c1nnc(C)n1-2 (stereo not shown)", "target or system": "MC4R (Homo sapiens, UniProt P32245)", "assay": "ligand displacement, radioligand", "setting": "1 µM", "endpoint": "remaining binding", "result": "100%"}
{"SMILES": "CC(C)C[C@H](NC(=O)[C@H](CC(C)C)NC(=O)[C@H](CCCCN)NC(=O)[C@H](Cc1ccccc1)NC(=O)[C@@H](NC(=O)[C@H](CCCNC(=N)N)NC(=O)[C@@H](N)CCCCN)C(C)C)C(=O)N[C@@H](CCCCN)C(=O)N[C@@H](CCCNC(=N)N)C(=O)N[C@@H](Cc1ccc(O)cc1)C(=O)N[C@@H](Cc1c[nH]c2ccccc12)C(=O)N[C@@H](CCCNC(=N)N)C(=O)N[C@@H](CCC(N)=O)C(=O)N[C@@H](CC(C)C)C(=O)N[C@@H](CCCCN)C(=O)N[C@@H](CCCCN)C(=O)N1CCC[C@H]1C(=O)N[C@H](C(=O)N[C@@H](CCCNC(=N)N)C(=O)NCCOCCOCC(=O)O)C(C)C", "target or system": "Staphylococcus aureus", "assay": "gel retardation", "system": "genomic DNA", "endpoint": "complete DNA binding concentration", "result": "≥ 16 µM"}
{"SMILES": "COc1ccccc1C(C[N+](=O)[O-])c1c(-c2ccccc2)[nH]c2ccccc12 (stereo not shown)", "target or system": "CNR1 (Homo sapiens, UniProt P21554, I245F)", "assay": "Gαi1-γ2 dissociation, BRET", "endpoint": "Emax", "result": "90 ± 11.9%"}
{"SMILES": "CCCn1ncc(CN2CCCC(C(=O)c3cccc(OC)c3)C2)c1C (stereo not shown)", "target or system": "Trypanosoma cruzi", "assay": "reporter mRNA translation, inhibitor, measured: Renilla luciferase mRNA", "system": "cell-free extract", "setting": "concentration not given, test 2", "how to read": "reference: positive over negative control", "endpoint": "translation activity", "result": "102% and 113%"}
{"SMILES": "N[C@H](C(=O)N1CCCC1)C1CCN(c2nccc3c(-c4ncc(Cl)cc4Cl)cccc23)CC1", "target or system": "PADI4 (Homo sapiens, UniProt Q9UM07)", "assay": "enzyme activity", "setting": "3.84 µM, high-affinity site, added: Ca2+ 1.5 mM", "endpoint": "kcat", "result": "0.35 s⁻¹ and 0.365 s⁻¹"}
{"SMILES": "COc1ccc(N2CCN(C(CNC(=O)Oc3ccccc3)c3cccnc3)CC2)cc1 (stereo not shown)", "target or system": "Trypanosoma cruzi", "assay": "reporter mRNA translation, inhibitor, measured: capped polyadenylated Renilla luciferase mRNA", "system": "cell-free extract", "setting": "concentration not given", "how to read": "reference: control RNA", "endpoint": "relative translation", "result": "101%"}
{"SMILES": "CC[C@H](C)[C@H](NC(=O)[C@H](CCCNC(=N)N)NC(=O)[C@H](CCCNC(=N)N)NC(=O)[C@H](CC(C)C)NC(=O)[C@H](Cc1ccccc1)NC(=O)CNC(=O)CNC(=O)[C@@H](N)Cc1ccc(O)cc1)C(=O)N[C@@H](CCCNC(=N)N)C(=O)N1CCC[C@H]1C(=O)N[C@@H](CCCCN)C(=O)N[C@@H](CC(C)C)C(=O)N[C@@H](CCCCN)C(=O)O", "target or system": "GPR139 (Homo sapiens, UniProt Q6DWJ6)", "assay": "G protein activation, agonist, BRET, measured: Gα14", "system": "HEK-293T/17", "setting": "40 µM", "how to read": "reference: GαoA response", "endpoint": "Emax", "result": "18.3%"}
{"note": "A few entries again:"}
{"SMILES": "CC(C)[C@H]1NC(=O)C[C@H]2/C=C/CCSSC[C@@H](NC1=O)C(=O)N[C@H](Cc1cccc3ccccc13)C(=O)NCC(=O)O2", "target or system": "FGFR3 (Homo sapiens, UniProt P22607)", "assay": "enzyme activity, inhibitor", "setting": "10 µM", "endpoint": "inhibition", "result": "1.8%"}
{"SMILES": "Nc1ccc(/C=C/C(=O)N2CCc3c(oc4c(-c5ccc(F)cc5)cc(-c5ccc(C(=O)N6CCC(F)(F)CC6)cn5)cc34)C2)cn1", "target or system": "Tyrosine-protein kinase ABL1, non-phosphorylated (ABL1, Homo sapiens, UniProt P00519)", "assay": "binding, competition with immobilised ligand", "setting": "1 µM", "endpoint": "remaining binding", "result": "91%"}
